Measured values gathered from unrelated publications.
Compare with care: the assays were run in different laboratories.
Matrix: plasma

| Compound | test system | conditions | scale | endpoint | value |
| --- | --- | --- | --- | --- | --- |
| NC(=O)/C=C/c1cccc(S(=O)(=O)Nc2ccccc2)c1 | human, moderate liver dysfunction | intravenous, 400 mg/m^2 belinostat, cycle 1 day -7, geometric mean | relative to: metabolite over belinostat | AUC(0-inf) metabolic ratio | 1.24 |
| CC(C)c1cnc(-c2cc(Cl)ccc2F)cc1Nc1ccncc1C(=O)NC(CO)CO | human, patients | oral, dose not given, CYP3A drug interaction, with: enzalutamide multiple dosing | relative to: cycle 2 day 1 over cycle 1 day 1 | AUC(0-inf) ratio | 30 to 40% |
| COc1cc2c(cc1OC)[C@H]1CC(=O)[C@H](CC(C)(C)O)CN1CC2 (racemic) | healthy human male | oral, 25 mg, geometric mean | – | AUC(0-inf) metabolite share of plasma radioactivity | 5.9% |
| CC(C)(O)c1ncc([S@](N)(=O)=NC(=O)Nc2c3c(cc4c2CCC4)CCC3)s1 | healthy human volunteers | oral, 10 mg single dose, fasted, capsule formulation | – | AUC(0-inf) | 9560 ng·h/mL |
| Cn1c(=O)oc2ccc(-c3ccc(CC(C#N)NC(=O)C4CNCCCO4)c(F)c3)cc21 (stereo not drawn) | human volunteers | 40 mg single dose, fasted, geometric mean | – | AUC(0-inf) | 3590 ng·h/mL |
| CONC(=O)/C=C/c1cccc(S(=O)(=O)Nc2ccccc2)c1 | human, normal liver function | intravenous, 400 mg/m^2 belinostat, cycle 1 day -7, geometric mean | relative to: metabolite over belinostat | AUC(0-inf) metabolic ratio | 0.422 |
| COc1cc2c(cc1OC)[C@H]1C[C@H](O)[C@H](CC(C)C(=O)O)CN1CC2 (relative stereo) | healthy human male | oral, 25 mg, geometric mean | – | AUC(0-inf) metabolite share of plasma radioactivity | 1.5% |
| CCc1c2c(nc3ccc(O)cc13)-c1cc3c(c(=O)n1C2)COC(=O)[C@]3(O)CC | human patients | intravenous, 24 mg/m^2 of parent drug | – | AUC(0-inf) | 168 ng·h/mL |
| O=C(O)/C=C/c1cccc(S(=O)(=O)Nc2ccccc2)c1 | human, normal liver function | intravenous, 400 mg/m^2 belinostat, cycle 1 day -7, geometric mean | relative to: metabolite over belinostat | AUC(0-inf) metabolic ratio | 0.452 |
